Experimental data collected from several papers.
A part holds a random share of what one study measured.
Chain of UniProt P42336 (whole entry, unmodified, looked up): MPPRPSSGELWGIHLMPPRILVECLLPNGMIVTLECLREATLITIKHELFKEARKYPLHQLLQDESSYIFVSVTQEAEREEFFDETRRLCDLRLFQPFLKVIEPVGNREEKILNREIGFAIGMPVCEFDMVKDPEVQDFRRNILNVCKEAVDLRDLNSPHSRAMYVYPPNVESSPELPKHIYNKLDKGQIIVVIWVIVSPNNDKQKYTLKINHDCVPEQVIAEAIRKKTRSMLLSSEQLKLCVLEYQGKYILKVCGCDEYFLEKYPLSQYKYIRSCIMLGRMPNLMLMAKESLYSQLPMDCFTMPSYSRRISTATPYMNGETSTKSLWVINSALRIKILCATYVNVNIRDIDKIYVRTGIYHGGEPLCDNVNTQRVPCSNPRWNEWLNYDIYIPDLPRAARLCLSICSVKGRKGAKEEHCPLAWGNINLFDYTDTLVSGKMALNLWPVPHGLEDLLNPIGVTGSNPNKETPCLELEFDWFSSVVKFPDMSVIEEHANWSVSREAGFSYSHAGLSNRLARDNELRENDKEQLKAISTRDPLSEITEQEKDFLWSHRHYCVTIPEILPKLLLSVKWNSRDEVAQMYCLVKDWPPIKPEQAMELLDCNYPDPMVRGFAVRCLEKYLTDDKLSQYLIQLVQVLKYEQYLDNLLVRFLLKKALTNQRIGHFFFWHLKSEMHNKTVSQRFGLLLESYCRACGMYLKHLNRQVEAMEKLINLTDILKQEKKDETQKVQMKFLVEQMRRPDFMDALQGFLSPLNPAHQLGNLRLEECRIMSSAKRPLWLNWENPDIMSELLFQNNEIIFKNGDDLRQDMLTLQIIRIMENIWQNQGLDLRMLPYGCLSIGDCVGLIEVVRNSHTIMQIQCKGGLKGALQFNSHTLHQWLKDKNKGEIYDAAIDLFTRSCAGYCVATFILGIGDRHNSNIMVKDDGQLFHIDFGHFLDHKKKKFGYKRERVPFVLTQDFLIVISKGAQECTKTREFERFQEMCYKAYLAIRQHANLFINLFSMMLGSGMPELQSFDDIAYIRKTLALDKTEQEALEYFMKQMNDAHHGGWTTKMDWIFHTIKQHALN
Chain of UniProt P32298 (whole entry, looked up): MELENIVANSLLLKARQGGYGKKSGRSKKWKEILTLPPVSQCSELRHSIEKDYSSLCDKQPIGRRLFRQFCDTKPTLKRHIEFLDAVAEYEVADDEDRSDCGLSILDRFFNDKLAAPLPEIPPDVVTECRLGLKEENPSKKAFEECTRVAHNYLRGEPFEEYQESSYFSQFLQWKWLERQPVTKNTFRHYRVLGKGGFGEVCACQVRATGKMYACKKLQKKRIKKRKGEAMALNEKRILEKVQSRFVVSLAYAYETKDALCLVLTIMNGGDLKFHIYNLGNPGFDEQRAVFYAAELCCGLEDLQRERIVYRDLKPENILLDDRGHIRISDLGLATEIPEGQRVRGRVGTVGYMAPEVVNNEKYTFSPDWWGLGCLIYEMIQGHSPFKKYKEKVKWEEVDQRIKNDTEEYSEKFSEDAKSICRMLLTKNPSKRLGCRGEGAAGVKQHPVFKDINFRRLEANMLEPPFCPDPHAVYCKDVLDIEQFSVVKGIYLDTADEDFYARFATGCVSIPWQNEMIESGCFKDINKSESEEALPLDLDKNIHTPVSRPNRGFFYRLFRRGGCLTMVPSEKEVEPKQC
Chain of UniProt P30530 (whole entry, looked up): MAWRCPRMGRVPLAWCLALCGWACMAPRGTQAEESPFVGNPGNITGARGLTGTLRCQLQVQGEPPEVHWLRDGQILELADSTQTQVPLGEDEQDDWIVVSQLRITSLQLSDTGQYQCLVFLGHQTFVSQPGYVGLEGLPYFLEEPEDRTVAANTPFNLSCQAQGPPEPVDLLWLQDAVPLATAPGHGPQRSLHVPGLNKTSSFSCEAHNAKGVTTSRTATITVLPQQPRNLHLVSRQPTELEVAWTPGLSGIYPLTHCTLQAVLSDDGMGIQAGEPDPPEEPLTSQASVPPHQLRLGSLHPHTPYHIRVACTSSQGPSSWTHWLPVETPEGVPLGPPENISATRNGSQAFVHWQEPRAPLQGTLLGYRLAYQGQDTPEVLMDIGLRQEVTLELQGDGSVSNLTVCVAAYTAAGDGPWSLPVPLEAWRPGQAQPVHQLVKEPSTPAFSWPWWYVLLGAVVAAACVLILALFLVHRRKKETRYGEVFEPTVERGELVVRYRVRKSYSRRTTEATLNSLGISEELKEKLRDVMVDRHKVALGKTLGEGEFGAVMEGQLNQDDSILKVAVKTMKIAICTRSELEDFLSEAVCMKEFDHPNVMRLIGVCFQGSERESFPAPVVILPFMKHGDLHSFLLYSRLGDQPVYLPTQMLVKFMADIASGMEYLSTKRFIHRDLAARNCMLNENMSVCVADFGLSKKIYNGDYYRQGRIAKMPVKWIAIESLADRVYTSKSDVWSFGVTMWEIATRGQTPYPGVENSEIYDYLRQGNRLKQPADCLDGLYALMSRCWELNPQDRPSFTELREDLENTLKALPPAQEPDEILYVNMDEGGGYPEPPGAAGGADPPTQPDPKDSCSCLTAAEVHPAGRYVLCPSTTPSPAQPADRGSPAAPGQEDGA
Chain of UniProt Q96D53 (whole entry, looked up): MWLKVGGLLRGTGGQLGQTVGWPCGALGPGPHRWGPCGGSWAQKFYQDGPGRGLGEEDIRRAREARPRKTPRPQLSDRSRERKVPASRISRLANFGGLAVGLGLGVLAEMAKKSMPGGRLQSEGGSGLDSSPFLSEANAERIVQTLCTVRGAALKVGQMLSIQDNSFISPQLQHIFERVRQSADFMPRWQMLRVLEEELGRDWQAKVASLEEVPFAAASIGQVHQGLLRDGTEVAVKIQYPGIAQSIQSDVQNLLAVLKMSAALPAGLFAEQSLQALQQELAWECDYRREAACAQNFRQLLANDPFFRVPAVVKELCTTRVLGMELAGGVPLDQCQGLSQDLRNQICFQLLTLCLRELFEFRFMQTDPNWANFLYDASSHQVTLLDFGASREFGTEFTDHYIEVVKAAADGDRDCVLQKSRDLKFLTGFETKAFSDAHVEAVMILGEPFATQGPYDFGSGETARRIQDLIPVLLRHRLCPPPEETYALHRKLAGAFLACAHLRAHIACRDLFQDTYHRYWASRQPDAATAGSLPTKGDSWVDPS
Chain of UniProt P24723 (whole entry, looked up): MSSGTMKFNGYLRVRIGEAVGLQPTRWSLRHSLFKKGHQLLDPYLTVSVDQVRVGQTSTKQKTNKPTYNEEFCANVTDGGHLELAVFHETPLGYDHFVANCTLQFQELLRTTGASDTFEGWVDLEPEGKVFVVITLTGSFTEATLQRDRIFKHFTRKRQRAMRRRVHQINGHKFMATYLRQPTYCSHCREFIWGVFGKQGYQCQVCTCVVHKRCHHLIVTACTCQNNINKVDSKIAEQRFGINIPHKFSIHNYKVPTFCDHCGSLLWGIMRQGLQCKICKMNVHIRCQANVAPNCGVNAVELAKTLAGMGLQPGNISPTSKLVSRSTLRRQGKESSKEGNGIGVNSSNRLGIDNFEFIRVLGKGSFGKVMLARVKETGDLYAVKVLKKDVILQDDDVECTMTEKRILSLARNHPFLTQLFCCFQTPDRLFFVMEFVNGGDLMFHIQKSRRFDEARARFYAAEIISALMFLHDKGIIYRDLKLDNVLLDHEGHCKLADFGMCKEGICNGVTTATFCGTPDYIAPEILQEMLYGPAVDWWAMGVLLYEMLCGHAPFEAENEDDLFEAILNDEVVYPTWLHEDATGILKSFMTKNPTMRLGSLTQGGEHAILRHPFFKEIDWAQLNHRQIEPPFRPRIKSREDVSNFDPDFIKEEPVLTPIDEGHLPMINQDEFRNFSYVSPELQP
Chain of UniProt P54646 (whole entry, looked up): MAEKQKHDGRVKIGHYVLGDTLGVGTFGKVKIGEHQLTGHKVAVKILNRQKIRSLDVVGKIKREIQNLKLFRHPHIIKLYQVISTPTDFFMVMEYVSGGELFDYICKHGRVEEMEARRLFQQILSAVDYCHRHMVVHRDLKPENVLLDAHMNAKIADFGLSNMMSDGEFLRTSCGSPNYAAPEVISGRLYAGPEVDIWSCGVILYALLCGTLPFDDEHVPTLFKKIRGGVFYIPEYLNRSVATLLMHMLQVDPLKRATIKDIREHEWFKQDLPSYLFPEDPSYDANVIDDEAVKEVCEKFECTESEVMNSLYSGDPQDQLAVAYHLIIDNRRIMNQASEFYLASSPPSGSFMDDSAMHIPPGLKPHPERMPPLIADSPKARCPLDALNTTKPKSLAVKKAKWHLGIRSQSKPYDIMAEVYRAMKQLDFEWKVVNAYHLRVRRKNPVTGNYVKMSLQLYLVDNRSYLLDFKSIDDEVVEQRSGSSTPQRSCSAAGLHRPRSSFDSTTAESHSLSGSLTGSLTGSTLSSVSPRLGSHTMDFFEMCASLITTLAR

Series 1
SMILES: Cc1cc(-n2nc(Cc3cc(F)cc(C(F)(F)F)c3)nc2C)ccc1C(N)=O
Effect on: cell-free assay
Method: competition with immobilised ligand
Concentration: 1 µM
target	remaining binding [%]
CDK16 (Homo sapiens, UniProt Q00536)	100
GRK4 (Homo sapiens, UniProt P32298)	100
SIK3 (Homo sapiens, UniProt Q9Y2K2)	83
Ribosomal protein S6 kinase alpha-1, N-terminal kinase domain (RPS6KA1, Homo sapiens, UniProt Q15418)	100
COQ8B (Homo sapiens, UniProt Q96D53)	100
Tyrosine-protein kinase ABL1, non-phosphorylated (ABL1, Homo sapiens, UniProt P00519, Q252H)	94
PAK4 (Homo sapiens, UniProt O96013)	100
PIK3CA (Homo sapiens, UniProt P42336)	100
IRAK4 (Homo sapiens, UniProt Q9NWZ3)	100
PRKAA2 (Homo sapiens, UniProt P54646)	100
Tyrosine-protein kinase ABL1, phosphorylated (ABL1, Homo sapiens, UniProt P00519, T315I)	98
MAP3K13 (Homo sapiens, UniProt O43283)	100
OXSR1 (Homo sapiens, UniProt O95747)	91
MAPK12 (Homo sapiens, UniProt P53778)	100
TAOK2 (Homo sapiens, UniProt Q9UL54)	91
PIK3CA (Homo sapiens, UniProt P42336, C420R)	93
Tyrosine-protein kinase JAK1, JH1 (JAK1, Homo sapiens, UniProt P23458)	100
TSSK3 (Homo sapiens, UniProt Q96PN8)	55
ROS1 (Homo sapiens, UniProt P08922)	87
CASK (Homo sapiens, UniProt O14936)	100
GRK3 (Homo sapiens, UniProt P35626)	100
AXL (Homo sapiens, UniProt P30530)	99
PRKCH (Homo sapiens, UniProt P24723)	97
EGFR (Homo sapiens, UniProt P00533)	100
ULK3 (Homo sapiens, UniProt Q6PHR2)	100

Series 2
SMILES: CC(C)S(=O)(=O)c1ccc2nccc(Nc3ccc4sc(C5CCCC5)nc4c3)c2c1
Effect on: kinase activity
Mode: inhibitor
Concentration: 1 µM
target	remaining activity [%]
GRK4 (Homo sapiens, UniProt P32298)	110
MAP4K1 (Homo sapiens, UniProt Q92918)	100
DYRK1A (Homo sapiens, UniProt Q13627)	99.5

Series 3
Target: Protein kinase C beta type, isoform beta-II (PRKCB, Homo sapiens, UniProt P05771)
Chain of UniProt P05771 (whole entry, looked up): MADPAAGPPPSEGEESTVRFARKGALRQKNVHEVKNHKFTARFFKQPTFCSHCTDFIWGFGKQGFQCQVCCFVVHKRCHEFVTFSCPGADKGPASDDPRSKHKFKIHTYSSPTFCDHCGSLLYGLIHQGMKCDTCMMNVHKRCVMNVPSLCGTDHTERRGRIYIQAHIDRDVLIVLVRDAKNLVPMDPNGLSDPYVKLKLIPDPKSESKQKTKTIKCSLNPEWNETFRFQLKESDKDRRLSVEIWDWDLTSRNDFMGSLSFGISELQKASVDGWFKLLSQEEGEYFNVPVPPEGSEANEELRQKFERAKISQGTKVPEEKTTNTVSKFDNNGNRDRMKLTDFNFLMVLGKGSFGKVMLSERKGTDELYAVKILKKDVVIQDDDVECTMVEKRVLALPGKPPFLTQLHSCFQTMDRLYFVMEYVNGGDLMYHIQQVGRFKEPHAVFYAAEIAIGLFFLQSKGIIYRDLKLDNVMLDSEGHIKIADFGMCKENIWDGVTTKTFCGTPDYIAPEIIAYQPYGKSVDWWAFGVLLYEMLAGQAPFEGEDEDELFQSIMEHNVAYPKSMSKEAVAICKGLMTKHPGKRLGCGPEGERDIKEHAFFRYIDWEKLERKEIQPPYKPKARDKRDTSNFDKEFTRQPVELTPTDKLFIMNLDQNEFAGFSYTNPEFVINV
Effect on: enzyme activity
Mode: inhibitor
Concentration: 0.5 µM
Baseline: control
SMILES	remaining activity [%]
OCC(O)CCON=C1C(c2c(O)[nH]c3ccccc23)=Nc2ccccc21 (stereo not shown)	88
COc1ccc(CNC(=O)Nc2ncc([N+](=O)[O-])s2)cc1	103
CN(C)c1ccc(C=C2C(=O)Nc3ccccc32)cc1	103
Oc1ccc(-c2nc(-c3ccncc3)c(-c3ccc(F)cc3)[nH]2)cc1	75
N#CCCc1ccc2c(c1)-c1[nH]c3ccc([N+](=O)[O-])cc3c1CC(=O)N2	76.3
Cc1ccc(Nc2nccc(N(C)c3ccc4c(C)n(C)nc4c3)n2)cc1S(N)(=O)=O	96.7
COc1ccc(C(=O)Nc2sc3c(c2C(N)=O)CCCC3)cc1OC	93.5
COc1cc2nccc(Oc3ccc(NC(=S)NC(=O)c4ccccc4C)cc3)c2cc1OC	102
COc1cc2ncnc(Nc3ccc(Oc4ccccc4)cc3)c2cc1OC	92.8
O=C1NC(=O)C(c2cn(CCCO)c3ncccc23)=C1c1cnccn1	102
NCCNc1ncc(C(N)=O)c(Nc2cccc(C(F)(F)F)c2)n1	86.1
Cc1nc(-c2ccccc2)c(-c2ccncc2)o1	88.4
N#CC(C#N)=C(N)/C(C#N)=C/c1ccc(O)cc1	111
O=C(O)c1ccc2c3c1cccc3c(=O)n1c3ccccc3nc21	97
O=C(CCCc1ccc(-c2ccccc2F)cc1)Nc1ccc(O)cc1	102
Cn1c2ccccc2c2c3c(c4c5ccccc5n(CCC#N)c4c21)CNC3=O	9.73
O=S(=O)(c1cccc2cnccc12)N1CCCNCC1	101

Series 4
Species: human
Medium: microsomes or S9
Concentration: 2 µM
Time: 0.5 h
SMILES	remaining compound
O=S(=O)(/N=C(\NC1CCCCC1)c1ccccc1)c1ccccc1	> 99%
CCOC(=O)C(C)n1nc(-n2cccn2)ccc1=O (stereo not shown)	0%
COC(=O)[C@@H](OC(C)(C)C)c1c(C)nc2c(c(C)c(C)n2CC2CCO2)c1-c1ccc2c(c1)CCCO2 (stereo partly shown)	2.85%
CC(C)c1cc(C(=O)N2C[C@@H]3CC[C@H](C2)N(C)C3=O)c(O)c(C(C)C)c1	> 100%
CN1CCN(C(=O)N2CCCN(C(=O)C[C@@H](Cc3cc(F)c(F)cc3F)NC(=O)OC(C)(C)C)CC2)CC1	12.5%
COc1ccc(CN2C(=O)C3=C(C#N)c4ccccc4Oc4cccc2c43)cc1	97.1%
Cc1ccc(NC(=O)c2cc3ccccc3n2C)c(OCC(=O)N(C)C)c1	54.5%
Cc1ccc(-n2nc(C)c(NCc3cnn(C)c3)c2C)cc1	71.1%
c1ccc(OCC2CN(c3ccc4nnc(-c5ccsc5)n4n3)CCO2)cc1 (stereo not shown)	49.8%
CCC(C)c1ccc(-c2c(C)sc(N)c2C#N)cc1 (stereo not shown)	39.7%

For quick reference, copied from above (series 3):
SMILES	remaining activity [%]
COc1ccc(CNC(=O)Nc2ncc([N+](=O)[O-])s2)cc1	103
CN(C)c1ccc(C=C2C(=O)Nc3ccccc32)cc1	103
Oc1ccc(-c2nc(-c3ccncc3)c(-c3ccc(F)cc3)[nH]2)cc1	75
N#CCCc1ccc2c(c1)-c1[nH]c3ccc([N+](=O)[O-])cc3c1CC(=O)N2	76.3
Cc1ccc(Nc2nccc(N(C)c3ccc4c(C)n(C)nc4c3)n2)cc1S(N)(=O)=O	96.7
COc1ccc(C(=O)Nc2sc3c(c2C(N)=O)CCCC3)cc1OC	93.5
COc1cc2nccc(Oc3ccc(NC(=S)NC(=O)c4ccccc4C)cc3)c2cc1OC	102
COc1cc2ncnc(Nc3ccc(Oc4ccccc4)cc3)c2cc1OC	92.8
O=C1NC(=O)C(c2cn(CCCO)c3ncccc23)=C1c1cnccn1	102
